Published values of several laboratories.
Parts stem from different laboratories: compare values within a part only.

Study 1
Target: RNA binding protein fox-1 homolog 2, RRM domain, GST-SBP tag (RBFOX2, Homo sapiens, UniProt O43251-10, residues 100-194)
Technique: RNA Bind-n-Seq
Form: RNA
Matrix: in vitro
Tested at: 365 nM
Notes: natural RNA segment, single round, ends assumed
Reference: no-protein control
Reading: higher = stronger binding
Residues (chain): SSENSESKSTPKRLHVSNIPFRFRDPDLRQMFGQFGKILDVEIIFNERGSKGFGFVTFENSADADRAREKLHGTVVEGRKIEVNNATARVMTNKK
`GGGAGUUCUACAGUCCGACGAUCACAGACAAGUCCUGUGUAACCUGCUUUAAAUGCUACACAUGUUAAUAAAAUGCUUAUUUGGUUAGCUUUCAAUGUCUCUUACUGAAAACAUAGCCCCUCUAUAACAUGCAUGGAAUUCUCGGGUGCCAA` — result for “RBNS enrichment (R)”: 0.788.
`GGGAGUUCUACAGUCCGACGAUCUGUUAGAAACAAAGCUAAAAUUUUAACAUGAUUAAUAAUAGAGAAGUUGGGUUUGGUUCUGUUGUUAUGAUUGUUUUGUCGUGGUGCUUGUGUUCAGUUAUAUUCUCUCUUGGAAUUCUCGGGUGCCAA` — result for “RBNS enrichment (R)”: 1.56.
`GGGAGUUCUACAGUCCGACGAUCUUUGAGACGGAGUCUUGCUCUGUCGCCAGGCUGGAGUGUAGUGGCGCAAUCCCGGCUCACUGCAACCUCUGCCUCCCGGGUUCAAGCGAUUCUCCUGCCUCAGCCUCCCAUGGAAUUCUCGGGUGCCAA`: “RBNS enrichment (R)” 0.271.
`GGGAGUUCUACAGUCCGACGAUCCAGAAUGAGAGAAGACAUUCAUGUACCACCUACUAGUCCCUCUCUCCCCAACCUCUGCCAGGGCAAUCUCUAACUUCAAUCCCGCCUUCGACAGUGAAAAAGCUCUACUUUGGAAUUCUCGGGUGCCAA`: “RBNS enrichment (R)” 0.402.
Under “RBNS enrichment (R)”, `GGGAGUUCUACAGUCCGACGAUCGCCGGGUGUGAGGGAAGUCAGACCUUGCAGGGCCCCAGGCCGCAGAAGAUUGCAUUUCACAGUCGUGGGGAAGCAGCUCUAACCAUAAGGAAGGCUGCUUCUCACCCUGCUGGAAUUCUCGGGUGCCAA` is recorded as 1.81.
Under “RBNS enrichment (R)”, `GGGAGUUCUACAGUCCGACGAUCGAGCUGUGCCAGAUGCUAGACACAUUUAAUAGCUGUCAGAUCAGCUCAUGAUCAUAUCAUGAGAAAACCGCCUUUUCAUAUUUAUUUUUCUAACUGAUCACAUACGCAGGUGGAAUUCUCGGGUGCCAA` is recorded as 0.38.
`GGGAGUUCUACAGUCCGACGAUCUCUGUCUGUAAACUUUGACAUCCAACCUGGAAAUCUAUUUGGUCAUGGUUAAAACAUUAUUCUCCUAUGAUAUUCAGAUUCUAGUUCUAUAUACUUCAUUAUAUAACUUUUGGAAUUCUCGGGUGCCAA` — result for “RBNS enrichment (R)”: 0.415.
`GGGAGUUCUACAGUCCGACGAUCCCUCCCUCCCUGCAGGCUUUUGUCUGGCAGGAGACAGCAACACCUCCUAGGACUCUGUACUUGAUUUUAAGCACUGGAGGAAACACCUCAGCAGUUUUGUGGUCUGCUAAUGGAAUUCUCGGGUGCCAA` — result for “RBNS enrichment (R)”: 0.619.
`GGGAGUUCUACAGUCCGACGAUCUGCCAAGGCUCUUGGCACAGGACUCACAUCUGGGCCACUCAGCUUGACCGAAGGCUGUGUGUGAAAGGGGAGAAAGACGAGACUUCCAGGCAGGGCUAUUCUUUUUAUUUUGGAAUUCUCGGGUGCCAA`: “RBNS enrichment (R)” 0.319.
For `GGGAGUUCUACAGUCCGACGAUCGCUCCACUCUUGCCGCCUUCCAGCUCUGAGUCUUGGGAAUGUUGUUACCCUUGGAAGAUAAAGCUGGGUCUUCAGGAACUCAGUGUCUGGGAGGAAAGCAUGGCCCAGCAUGGAAUUCUCGGGUGCCAA`, “RBNS enrichment (R)” read 5.55.
Under “RBNS enrichment (R)”, `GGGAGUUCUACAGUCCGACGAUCCAUUGUUAUUCAUUUUGUAAAAUACUAGUGUUUAUUUUCAUUUUUUGUAAAAUUUAAACAUCGUAUGCGCAUAAACAAAAAUGAACAAGAAUUAGGGGGAAAUAACAUUUUGGAAUUCUCGGGUGCCAA` is recorded as 0.788.
`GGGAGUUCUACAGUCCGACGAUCGCUCUUUGGUUUCUUAAAAGGAAAGCUUGUUUUCUUUCCUUUAUCAUUACAGAGGUAUGUCUUUGGUUCUUAAACUAUCUGUCUAAAAUAAAGCUGUAAAAAAUUAACAGUGGAAUUCUCGGGUGCCAA`: “RBNS enrichment (R)” 0.401.

Study 2
Target: Histone acetyltransferase KAT6A, both winged helices, GST fusion (KAT6A, Homo sapiens, UniProt Q92794, residues 1-181)
Technique: protein binding microarray
Form: double-stranded DNA, one strand shown
Matrix: in vitro
Tested at: not given
Notes: 8-mer, flanks averaged, mean of 2 arrays, mostly near background
Reference: not given
Reading: higher = stronger binding
Construct (chain): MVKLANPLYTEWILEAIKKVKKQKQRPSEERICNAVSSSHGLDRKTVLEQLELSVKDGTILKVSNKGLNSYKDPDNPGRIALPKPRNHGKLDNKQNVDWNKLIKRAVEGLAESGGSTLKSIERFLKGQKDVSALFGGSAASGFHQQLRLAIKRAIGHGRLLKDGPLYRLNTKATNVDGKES
The E-score of `ATAGGAGA` is reported as -0.205.
For `CTTTGGAA`, the E-score was -0.00741.
`CGCTCCGC` gave an E-score of 0.264.
The E-score of `CGCAGAGC` is reported as 0.179.
`AAGCGTGC` has an E-score of 0.186.
The E-score of `ACAGGGCC` is reported as -0.00198.
`ACTCTGTG` has an E-score of -0.17.
With `GAAGGCTC` the E-score was -0.142.
`AGATCGAC` gave an E-score of -0.0429.
The E-score of `CAGGGGGG` is reported as -0.249.
For `AACGGCTG`, the E-score was 0.209.
`CATAGTGA` has an E-score of -0.18.
With `GAGTAGTA` the E-score was -0.089.
With `AAAATATT` the E-score was -0.0441.
The E-score of `GCTCAGCA` is reported as -0.0451.
`AAATGACT` gave an E-score of -0.0854.
The E-score of `GCGGCGAC` is reported as 0.308.
`CATCTTAG` has an E-score of -0.0466.
`CAATACTA` gave an E-score of -0.0688.
With `CTTGCAAA` the E-score was -0.0281.
The E-score of `ACTTCTGG` is reported as -0.207.

Study 3
Target: Prothrombin, mature alpha-thrombin (F2, Homo sapiens, UniProt P00734)
Technique: aptamer microarray, sandwich
Form: DNA with 2'F-ANA
Matrix: in vitro
Tested at: 200 nM
Notes: whole 15-mer aptamer, many near background
Added: Cy3 exosite-II aptamer, 400 nM
Reading: higher = stronger binding
Strand: GGTTGGTGTGGTTGG
`2'F-ANA at 3 6 7 10 13 15` — result for “mean fluorescence intensity”: 478 a.u.
Under “mean fluorescence intensity”, `2'F-ANA at 1 3 5 7 8` is recorded as 72.1 a.u.
`2'F-ANA at 1 5 7 9 10 13` — result for “mean fluorescence intensity”: 46.3 a.u.
`2'F-ANA at 1 2 4 5 6 7 8 9 10 11 12 15` — result for “mean fluorescence intensity”: 103 a.u.
Under “mean fluorescence intensity”, `2'F-ANA at 1 3 5 6 8 11` is recorded as 55.1 a.u.
`2'F-ANA at 2 4 5 7 9 10 11 14 15` — result for “mean fluorescence intensity”: 46.5 a.u.
`2'F-ANA at 1 4 5 13 14`: “mean fluorescence intensity” 46 a.u.
`2'F-ANA at 1 3 8 9 11 13` — result for “mean fluorescence intensity”: 287 a.u.
For `2'F-ANA at 2 3 5 9 10 14`, “mean fluorescence intensity” read 48.5 a.u.
For `2'F-ANA at 1 5 7 8 9 10 11 13 14`, “mean fluorescence intensity” read 46.1 a.u.
`2'F-ANA at 1 4 9`: “mean fluorescence intensity” 127 a.u.
`2'F-ANA at 1 2 4 5 6 7 11 12 15`: “mean fluorescence intensity” 81.1 a.u.
`2'F-ANA at 1 3 4 6 7 8 9 10 11 15` — result for “mean fluorescence intensity”: 63.1 a.u.
`2'F-ANA at 3 6 8 13 14 15`: “mean fluorescence intensity” 465 a.u.
`2'F-ANA at 1 6 7 13 14` — result for “mean fluorescence intensity”: 54.9 a.u.
`2'F-ANA at 1 2 4 6 9 10 11 14 15` — result for “mean fluorescence intensity”: 51.2 a.u.

Study 4
Target: RING finger protein unkempt homolog, zinc fingers 1-6, GST-SBP tag (UNK, Homo sapiens, UniProt Q9C0B0, residues 30-357)
UniProt Q9C0B0, sequence (30-357, looked up): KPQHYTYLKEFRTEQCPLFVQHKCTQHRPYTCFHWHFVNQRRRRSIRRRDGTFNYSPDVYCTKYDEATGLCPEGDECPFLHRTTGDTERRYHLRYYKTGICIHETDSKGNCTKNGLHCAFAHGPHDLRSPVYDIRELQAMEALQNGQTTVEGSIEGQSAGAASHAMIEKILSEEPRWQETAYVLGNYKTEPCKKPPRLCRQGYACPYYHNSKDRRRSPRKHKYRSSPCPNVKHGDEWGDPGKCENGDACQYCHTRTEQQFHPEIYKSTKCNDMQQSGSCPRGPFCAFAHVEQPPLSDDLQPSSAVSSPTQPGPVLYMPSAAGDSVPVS
Technique: RNA Bind-n-Seq
Form: RNA
Matrix: in vitro
Tested at: not given
Notes: RNA with constant flanks, human and mouse sites, ends assumed
Reference: input RNA pool
Reading: higher = stronger binding
With `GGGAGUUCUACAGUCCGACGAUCGUGUCUGGUGUGGGUUUCCCAAGCAAGGUUCCUUGGAAGAAGAUGUCUGCAGAGGAGCUGGAGAAUCAGUACUGUCCCAGCCGAUGGGUUGUCCGACUGGGAGCAGAGGAAGCCUUGAGGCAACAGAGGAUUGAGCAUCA` the bound/input enrichment was 0.157 ratio.
The bound/input enrichment of `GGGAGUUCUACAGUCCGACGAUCAAGCACUUUCAACAGGCAAAAAUGAUAUUGGAAAAUAUUCCUAACCCGGACCAUGAGGUUAAUAGAAUUUUAAAGGUUGCCAAACCCAACUUUGUGGUUAUGAAGUUAUUGGCAGGAGGACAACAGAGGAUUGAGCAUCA` is reported as 1.87 ratio.
`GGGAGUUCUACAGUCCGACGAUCAAGGACCCAGAAAAAGUGGCUCGGGUGAAAGCACUGUAUGAGGCGCUGGAUCUGCAGUCUGCUUUCUUCAAGUAUGAGGAAGACAGUUACAACCGCCUCAAGAGUCUCAUAGAGCAGUGCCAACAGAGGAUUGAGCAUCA` has a bound/input enrichment of 0.228 ratio.
For `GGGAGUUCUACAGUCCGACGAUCCUCUUAAAAACUGUACCAAUUAUCCAAAAUCAAAUGGAUGCACUUCUUGAUUUUAAUGUUAAUAGUAAUGAACUUACAAAUGGGGUAAUAAAUGCUGCCUUCAUGCUCCUCUUCAAAGAUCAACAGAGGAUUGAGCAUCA`, the bound/input enrichment was 0.435 ratio.
For `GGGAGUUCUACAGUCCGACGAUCUAAUUUAUUUGUAUCAAUCCCCGCUUUAUAUUAAACGGCAACAAAAAAGCACAGAAAAUUUAGCACUUUAAUAAUUUUGACAUUAUUGUACAGCUCUUAAGUAUUUUCAAGACAGCACUACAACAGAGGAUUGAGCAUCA`, the bound/input enrichment was 9.95 ratio.
`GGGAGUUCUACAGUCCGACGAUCCAUAGAAUUUAUACUGCUGAGCUGGCACACAUUUACUUUAGGAAACCUAACUGGAAAUGUUAGGUGAGGAACAGAACUGGAGAAUUCAAAAGUGACAUUUUUGUAGCCAACCUCAGUAUACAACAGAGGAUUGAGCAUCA` has a bound/input enrichment of 6.27 ratio.
For `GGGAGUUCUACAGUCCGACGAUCGUCAAUGACCAAAUAAUUACCACCUCACAAGCCAACUUUGGCAAGACCCUAUCUCUCCCCUACUCCUGAAUACAAUCGUGUGCAUUGGUUCUUCCAGGAAGACCAGAUUGAAUGGAAAUGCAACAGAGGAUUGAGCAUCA`, the bound/input enrichment was 0.604 ratio.
For `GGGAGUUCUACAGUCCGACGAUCUGUUAAUAAAUUAGAAGCUAUUAACUAAACAUACCUAAAUGACACAGCUAAUAAAUGGAUUAGUUUCAUGUUCAUAACAAACUGAAAAAUACAUUACUCCAAGAAAAAGUCUUGAUACUGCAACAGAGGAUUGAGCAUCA`, the bound/input enrichment was 0.91 ratio.
`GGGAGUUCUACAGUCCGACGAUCGCAAUAAAAUAUAAAUCAUUCUAUUGGAGAGAAAUGCAUUGUUUUCUGCCAGUGGAUAUUUUCUUUGAAAGUUUGCAGACUGAGAGGAGAGAGGCAGAGCAACGAUGUAGUGAAAUGUUGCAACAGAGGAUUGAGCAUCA` has a bound/input enrichment of 0.286 ratio.
The bound/input enrichment of `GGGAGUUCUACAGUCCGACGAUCAAGAUUUGGACCUUGGAGCUGAACCAGGGAGCUAGCAAAAGUAAAGCAGACUUAUAAAAUUAUAGCUAUGUGCAGCUGCACAACACAGUCCUUCCACUAGCAGCUGUGUUAAAGUAUUUACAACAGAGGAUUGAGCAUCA` is reported as 4.1 ratio.
With `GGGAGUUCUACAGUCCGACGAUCGGGACUGAUUCAUCCCAAGGACAGGCCACCCCAUUUGAUGCCUGGACUGAUGACAGUAUGGAAGGGCCUAGUCAAAAUGUUGAAGCUGAGUCAAUUCAGGAUGCCAUGAGUAUGGAAGAGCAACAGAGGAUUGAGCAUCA` the bound/input enrichment was 0.336 ratio.

Excerpt of the above (study 2):
The E-score of `CAGGGGGG` is reported as -0.249.
With `GAGTAGTA` the E-score was -0.089.
`AAATGACT` gave an E-score of -0.0854.
The E-score of `ACTTCTGG` is reported as -0.207.
With `GAAGGCTC` the E-score was -0.142.
`ACTCTGTG` has an E-score of -0.17.
`CAATACTA` gave an E-score of -0.0688.
With `AAAATATT` the E-score was -0.0441.
`AGATCGAC` gave an E-score of -0.0429.
